Assay results collected from several papers.
Every numbered part comes from another study and shows a few of its results, in no order.

Set 1
Target: Sal-like protein 4, full length isoform B (SALL4, Homo sapiens, UniProt Q9UJQ4-2, residues 1-616)
Method: universal PBM
Form: double-stranded DNA, one strand shown
Medium: in vitro
Tested at: not given
Setting: 8-mer, flanks averaged, mean of replicates
Reading: higher = stronger binding
Oligonucleotide	E-score
TCACAAGA	0.0277
CGAGTACA	0.00195
AGCGAAGG	-0.142
GAGACGGC	-0.21
ACGCATCC	-0.211
CTGAGGTC	-0.23
AGCCAAAC	-0.0566
AGGAAGGG	-0.177
GCCGTTAA	-0.0152
AGTGGCCG	-0.328
CCCGTTAA	-0.123
CACTTGCG	-0.205
ACTCCCAT	0.047
ATTCAACC	0.0152
ATTGATTG	0.188
AGCTCGCA	-0.23
AATCTGAT	0.102

Set 2
Target: Histone acetyltransferase KAT6A, winged helix 2, GST fusion (KAT6A, Homo sapiens, UniProt Q92794, residues 85-181)
Method: protein binding microarray
Form: double-stranded DNA, one strand shown
Medium: in vitro
Tested at: not given
Setting: 8-mer, flanks averaged, mean of 2 arrays, mostly near background
Baseline: not given
Reading: higher = stronger binding
Target sequence (chain): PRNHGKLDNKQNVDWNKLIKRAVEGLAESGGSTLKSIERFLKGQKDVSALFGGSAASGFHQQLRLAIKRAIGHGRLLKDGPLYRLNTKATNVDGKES
Oligonucleotide	E-score
AGTCCGCG	0.0887
CACATACA	-0.25
CTACAAAG	-0.0164
AATAGAGA	-0.0232
AATTCATC	-0.0952
CCTCAGCA	0.0674
CCGGGTAC	0.166
CATTTGTC	-0.0654
CTAAGTGA	0.046
CAACACCA	0.0242
CTGATAAA	0.121
ATCACGAT	-0.165
AACCATAG	0.0252
AAACTTCC	0.00385
GCCCAGTA	0.0695
CGTTGAAG	-0.122
CGTCAATA	-0.0157
CGCGTTTA	-0.109
GCCATCCC	0.0703
ACGCACGC	0.223
CGACCCTA	0.159
TCAAGAAA	0.223
AAGGCGCT	0.0285
ACCCTTTA	0.0141
CCCGGAAC	0.117

Set 3
Target: RING finger protein unkempt homolog, zinc fingers 1-6, GST-SBP tag (UNK, Homo sapiens, UniProt Q9C0B0, residues 30-357)
Method: RNA Bind-n-Seq
Form: RNA
Medium: in vitro
Tested at: not given
Setting: RNA with constant flanks, ends assumed
Baseline: input RNA pool
Reading: higher = stronger binding
Construct (chain): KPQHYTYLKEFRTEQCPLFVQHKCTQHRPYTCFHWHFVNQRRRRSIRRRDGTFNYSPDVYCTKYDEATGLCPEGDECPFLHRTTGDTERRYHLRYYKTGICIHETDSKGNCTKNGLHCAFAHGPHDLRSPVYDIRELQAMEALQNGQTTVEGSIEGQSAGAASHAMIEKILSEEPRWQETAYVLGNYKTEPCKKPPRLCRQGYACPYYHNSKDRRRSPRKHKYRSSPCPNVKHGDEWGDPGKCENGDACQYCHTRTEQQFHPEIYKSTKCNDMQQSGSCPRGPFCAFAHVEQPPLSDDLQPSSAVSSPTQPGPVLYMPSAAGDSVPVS
Oligonucleotide	bound/input enrichment [ratio]
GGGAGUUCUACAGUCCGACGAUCAUUAAAAUAUUACUACUGGGUUAUUAACCCUGCUGACAGCAGUGGCAUUGCACCUAAAGGACCCGGUAAGCUCCUCUGCGGCCUCAUUUCCAUUUUCCUGUGUUUAGAUCCGGGGUGCAGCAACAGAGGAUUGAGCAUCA	0.687
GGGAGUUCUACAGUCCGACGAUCGCUUCCUUAGGUCUAGAGAAGUUGGUAAGCCCUCCAGCCUCAGCCGCUGCUUCCAGCCCCCGUUCUUCUCCAUCUCCACAGCCUGUUUCAGAGCUUGACAUGUCCUCAGAGCCACCUCAGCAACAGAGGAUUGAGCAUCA	0.523
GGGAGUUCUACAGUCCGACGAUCUACCUUGAAAGAAGAAAAGGUUCUUACUGCUUGGUCCUUGAUUUAUCACACAAAGCAGAACCGUAUUUUUAUAUUUAAAUGUAAAGACAAAAAACUAUAUGUAUGGUUUUGUGGAUUAUGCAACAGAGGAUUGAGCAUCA	0.107
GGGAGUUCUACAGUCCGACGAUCGCAGUUAUAUGUGGAAACACUGGUAAUUCUUUCCACAGUGUUGUUUUGGAUAAUCUGUUCCCGUAUAUUUAACUAAUUGUAUGGUGGACCUGUACUCUGAUACACAUCGAAUCAGUCAAUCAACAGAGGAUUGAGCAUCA	0.466
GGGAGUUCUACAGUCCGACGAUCCUGAGCUAAAGGAGUUAGCAUCUUUAUUUUUGUAUCAAAAAUAAAGGUUAUUUUGAAAUUAUCCGGAUUUUUACACAAUUCUGAAAUCUGUUGCUUUUGUAAACAAAUUGUUUGAUCUUACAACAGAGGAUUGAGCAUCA	7.53
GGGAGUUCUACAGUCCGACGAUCGCUAUGCAAGCCUUAACUCUUCUGGGAGCAUGUGUAUCAAACUGUGGCAAAAUUUUUCACUCCGAAGUAUGUUCAAGAGACUUUGCUAGUGAAGUAAGCAAUGUAUUAAAUAAGGGUCAUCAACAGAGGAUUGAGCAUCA	0.298
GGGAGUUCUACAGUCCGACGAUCGUGACCAAUUUGUUGCAGUUACCUCAGUACUUUGAUUUGGAGAUAUACACCACUGGACGAUCCGAAAAGCAUUUGGAUGCCUUAUUGCGCCAGAUCCGAAAUAUUGUAGAGAAGCACACACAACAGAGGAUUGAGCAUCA	0.262
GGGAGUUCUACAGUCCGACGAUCUUGGCUACACUUUUCAGUGCAUUGACUGGUUUGCCAUGGAGUCUUUAUAAUACUUUUGUGACCGAAGAAAAACAUGGCUUCAAUCAACAGACUUUGGGGUUCUUCAUGAAAGAUGCAAUCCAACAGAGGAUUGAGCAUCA	0.0732
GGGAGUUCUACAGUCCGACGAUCUGUGGAAUCAAGCACCUUCACUCUGCUGGAAUUAUUCAUCGGGACUUAAAGCCUAGUAAUACCGCCGUCAAAUCAGACUGCACUUUGAAGAUUCUUGAUUUUGGACUGGCGAGGACUGCACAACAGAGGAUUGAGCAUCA	0.342
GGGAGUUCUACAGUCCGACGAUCGUGCUUCACAUUUGUAUGUGUGUAGACUGUAACUUUUUUUCAGUUCAUAUGCAGAACGUAUUCCGCCAUUACCCACGUGACACCACCGAAUAUAUUACUGAUUUAGAAGCAAAGAUUUCACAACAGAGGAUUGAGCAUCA	0.416
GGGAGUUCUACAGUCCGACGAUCGAUGUCAUCGAAGACAAAUUGAAGGGAGAGAUGAUGGAUCUCCAACAUGGCAGCCUUUUCCUCCGAACACCAAAGAUUGUCUCUGGCAAAGACUAUAAUGUAACUGCAAACUCCAAGCUGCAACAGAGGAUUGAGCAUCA	0.115

Set 4
Target: Hepatocyte nuclear factor 3-beta, forkhead domain (FOXA2, Homo sapiens, UniProt Q9Y261, residues 142-269)
Method: protein-binding microarray
Form: double-stranded DNA, one strand shown
Medium: in vitro
Tested at: not given
Setting: k-mer, scored over probes, only values ≥0.25
Reading: higher = stronger binding
Residues (chain): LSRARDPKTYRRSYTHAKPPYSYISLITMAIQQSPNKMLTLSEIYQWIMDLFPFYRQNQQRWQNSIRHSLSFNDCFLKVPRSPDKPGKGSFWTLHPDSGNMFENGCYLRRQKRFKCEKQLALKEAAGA
Oligonucleotide	E-score
ATCGTTTA	0.29
AATGTCTA	0.314
GTAATATA	0.353
TATTTTAA	0.263
CAATACGA	0.253
GTTTGTTA	0.271
ATAACAAC	0.373
ACTGTGTA	0.3
ACCAAATA	0.299
ATGAATAA	0.252
CTATGTTA	0.274

Set 5
Target: PABPC1L2, full length, GST fusion (mouse, UniProt A0ABA7IW68)
Method: RNAcompete
Form: RNA
Medium: in vitro
Tested at: 20 nM
Setting: 7-mer, probes averaged, single round
Baseline: mean of 7-mers
Reading: higher = stronger binding
Residues (chain): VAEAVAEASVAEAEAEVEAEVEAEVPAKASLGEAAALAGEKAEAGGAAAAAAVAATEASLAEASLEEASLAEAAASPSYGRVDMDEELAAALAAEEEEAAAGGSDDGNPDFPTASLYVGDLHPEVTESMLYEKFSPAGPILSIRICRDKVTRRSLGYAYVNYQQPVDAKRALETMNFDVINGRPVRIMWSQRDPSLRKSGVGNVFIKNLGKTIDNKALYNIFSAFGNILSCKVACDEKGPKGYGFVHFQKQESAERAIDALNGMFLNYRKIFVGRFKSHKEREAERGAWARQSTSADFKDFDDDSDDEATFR
Oligonucleotide	7-mer Z-score
AUGAUUA	-0.161
UUUUAUG	0.215
ACAACGU	-0.0518
UUGUGUC	-0.541
UUGCCUA	-0.311
UCCCUGG	-0.454
AGGUUCG	-0.325
CAACUAG	-0.202
UGACUCU	-0.24
GCUCUCC	-0.316
CUGCGCU	-0.298
ACAAGUG	0.245
AUGUGAA	0.0533
ACUCUUG	-0.394
AGAAUCA	-0.012
GCCUACA	-0.142

Set 6
Target: RNA binding protein fox-1 homolog 2, RRM domain, GST-SBP tag (RBFOX2, Homo sapiens, UniProt O43251-10, residues 100-194)
Method: RNA Bind-n-Seq
Form: RNA
Medium: in vitro
Tested at: 365 nM
Setting: natural RNA segment, single round, ends assumed
Baseline: no-protein control
Reading: higher = stronger binding
Construct (chain): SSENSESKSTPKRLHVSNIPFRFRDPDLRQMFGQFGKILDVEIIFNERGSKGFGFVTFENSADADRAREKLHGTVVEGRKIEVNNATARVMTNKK
Oligonucleotide	RBNS enrichment (R)
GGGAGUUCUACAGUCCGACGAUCAACCUGCUAGUGCACAGGCUGUACUUUAGGUACUUAAAAUAUGCACUAGAAUAAAUUUGCAAGGCCCUAAAAUAUCACUGUUAUUUUUGGAGUAAUUCAGUAUAGGUUCGUGGAAUUCUCGGGUGCCAA	0.357
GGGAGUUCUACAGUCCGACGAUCGUUCUCUGGGACUUUGUAAUUUUGAUUACUACUAUUGAUACAUGGUUAUGGUCAGAAGGCCUCUUCUCCCUUCCUCCCUCACUCCCUCUCCUCCUAGCUUUCCCCACAGAUGGAAUUCUCGGGUGCCAA	0.824
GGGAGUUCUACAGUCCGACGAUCAAGAAUAGUAUGCCAGCAAUCCCUGAUUCUCUCUCUGCUUGGUGUUCUCUGGCAGCACUAAGACAAAGGAACAGGGACUAGGAGUUUACGUGCUUAUCACAGGUCCUUGGUGGAAUUCUCGGGUGCCAA	0.316
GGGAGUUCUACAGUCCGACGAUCUGGAAGGGGUGCCUGUCCCCUUGGGGACAGAAGGAAAAUGAAAGGCCCCUCUGCUCACCCUGGCCAUUUACGGGAGGCUCUGCUGGUUCCACGGUGUCUGUGCAGGAUCCUGGAAUUCUCGGGUGCCAA	0.502
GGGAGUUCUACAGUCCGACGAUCGUGCACAGUGCCCAAACAGCAAUAGAAAGGCUUACUUAUAACCAAACUCCAAGUGAUAGUGAGACCCAUCUCUCCUCUACCUUGAAGAGAGCAGAUCAUAGUAUAUGAGAUGGAAUUCUCGGGUGCCAA	0.754
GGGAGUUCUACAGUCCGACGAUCGUACUGGUCCAAUUUAUUUAGGAAGUAUCUCUUGGAGUUUCAGAAAUGCUAGCUUGGACAACUGAAAAGUCACAUCACAGCUGGCAUUCUGGGGGCUACCAAAACACCCCUGGAAUUCUCGGGUGCCAA	0.215
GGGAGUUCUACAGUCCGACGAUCGUAUGUCGAUUGUAUCGCUGCUACAUCAGACUCUAGAAAAAAGGGCUGAGAGGAAGCAAGACGUAAAGAAUUUUCAUCCCGUAUCACAGUGUUUUUAUUGCUCGCCCAGAUGGAAUUCUCGGGUGCCAA	0.89
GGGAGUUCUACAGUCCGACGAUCAGUGGAGAAGGGCAGCCAAGUUUGGGGAGGGAGGGUGGUUAUGGAAAAACAGAACCAGCAUACCCCCAGGACCCAGCUGUGCUGGGAGCCUCAGUGUCCUCACCUGUCAAUGGAAUUCUCGGGUGCCAA	0.376
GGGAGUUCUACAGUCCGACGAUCCUUCAGGCGGGUCUCAGGAGCUUCUAAAAAUCCGCAUGGCUCUCCUGAGAGUGGACAGAGGAGAGGAGAGGGUCAGAAAUGAACGCUCUUCUAUUUCUUGUCAUUACCAAUGGAAUUCUCGGGUGCCAA	0.465
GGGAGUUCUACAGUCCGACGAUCUGUCCACCAGUGAUCUCAAGCAUGGCUUAGGGCUGGCAGGGACCUGAGCCCUCAUUUCACAAUGUGAUUCAGGCUACAGGUUUUUUUGGGGGGACAAAUCUUGUUUCUCUUGGAAUUCUCGGGUGCCAA	0.395
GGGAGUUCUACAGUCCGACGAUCGAAAAACAGUAACUGCUGUUUGUUACAGCCUGAAAUCCAGGACGACCGCAUUUUCUCUUGGUUUCUAAAAGGAAGGGAAUCUUCCCGAUUUUUCUAAGAUGUUGAGUAUUUGGAAUUCUCGGGUGCCAA	3
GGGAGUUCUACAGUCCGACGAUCCGUCAACUCCUGUCAUUUUUAGAAAAUAAAACUGGAAAUUGAAUGUGGGUGGCAUGAUUGUACCCUCCUGGCUCUGUAUUUUCUCACUCCUCUGUCCUUCUAUAACUAGGUGGAAUUCUCGGGUGCCAA	20.6

Repeated from above (set 2):
Oligonucleotide	E-score
CAACACCA	0.0242
CTGATAAA	0.121
ATCACGAT	-0.165
AACCATAG	0.0252
AAACTTCC	0.00385
GCCCAGTA	0.0695
CGTTGAAG	-0.122
CGTCAATA	-0.0157
